Results of several laboratories.
Numbered parts are unrelated; each lists some results of a single study.

Set 1
Target: Histone acetyltransferase KAT6A, winged helix 1, GST fusion (KAT6A, Homo sapiens, UniProt Q92794, residues 1-85)
Method: protein binding microarray
Molecule type: double-stranded DNA, one strand shown
Medium: in vitro
Tested at: not given
Setting: 8-mer, flanks averaged, mean of 2 arrays, mostly near background
Baseline: not given
Direction: higher = stronger binding
Construct (chain): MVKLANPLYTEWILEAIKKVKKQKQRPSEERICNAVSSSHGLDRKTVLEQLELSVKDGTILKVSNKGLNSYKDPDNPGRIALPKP
| Strand | E-score |
| --- | --- |
| GCCGACAA | 0.205 |
| CTAAAGTC | -0.203 |
| ATGAAAAG | -0.108 |
| TCTAACAA | -0.119 |

Set 2
Target: Sal-like protein 4, full length isoform B (SALL4, Homo sapiens, UniProt Q9UJQ4-2, residues 1-616)
Method: universal PBM
Molecule type: double-stranded DNA, one strand shown
Medium: in vitro
Tested at: not given
Setting: 8-mer, flanks averaged, mean of replicates
Direction: higher = stronger binding
| Strand | E-score |
| --- | --- |
| CAGATTCG | -0.0736 |
| ACCTAGGG | -0.161 |
| CATTTAGC | 0.064 |

Set 3
Target: PABPC1L2, full length, GST fusion (mouse, UniProt A0ABA7IW68)
Method: RNAcompete
Molecule type: RNA
Medium: in vitro
Tested at: 20 nM
Setting: 7-mer, probes averaged, single round
Baseline: mean of 7-mers
Direction: higher = stronger binding
Residues (chain): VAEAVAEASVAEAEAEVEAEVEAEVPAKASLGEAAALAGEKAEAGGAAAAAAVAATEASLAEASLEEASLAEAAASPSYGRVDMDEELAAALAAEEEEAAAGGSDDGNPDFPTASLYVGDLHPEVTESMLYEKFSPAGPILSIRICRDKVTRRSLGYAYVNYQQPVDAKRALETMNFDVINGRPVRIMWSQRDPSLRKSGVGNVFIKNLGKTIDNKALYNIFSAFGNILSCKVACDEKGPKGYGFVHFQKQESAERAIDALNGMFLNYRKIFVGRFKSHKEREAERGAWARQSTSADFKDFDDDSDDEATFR
| Strand | 7-mer Z-score |
| --- | --- |
| UUAUUUG | -0.171 |
| UUCCCCC | -0.505 |
| CUGACAA | 0.316 |

Mixed results
| Substance | target | assay | test system | setting | how to read | endpoint | result |
| --- | --- | --- | --- | --- | --- | --- | --- |
| PhoQ, residues 284 288 289 292 302 303 SVTLVV | PhoP, residues 12 14 15 18 19 NNFVT (Escherichia coli, UniProt P23836) | Sort-seq, refers to: YFP reporter | E. coli | PhoQ-PhoP variant library, with: 10 µM Mg2+ | baseline: high Mg2+ state, higher = stronger signaling | fold induction | 4.52 |

A few entries again (set 1):
| Strand | E-score |
| --- | --- |
| TCTAACAA | -0.119 |
| GCCGACAA | 0.205 |
